# Assay results pooled from the literature.
# Protocols differ between the studies behind these lines. “And” joins repeats or separate records; there may be more than shown. ± gives the spread as reported.
Compound,test,test system,conditions,scale,endpoint,value
CC1(C)[C@H](C(=O)OCc2cccc(Oc3ccccc3)c2)[C@@H]1C=C(Cl)Cl,refers to: CYP3A4,"human, age 6 months, recombinant human CYP3A4",0.1 µM,,enzyme contribution to clearance,0.6%
COc1ncccc1-c1cnn2ccc(N3CCN(C(=O)OC(C)C)CC3)nc12,,"mouse nerve ligation model, brain","oral, 30 mg/kg, 120 min after last dose, repeat dosing day 1",,drug concentration,24 µM
CCOC(=O)C(CC)(CCCSCCOCCOCCOCCOCCNC(=O)OC(C)(C)C)NC(=O)c1ccc(C2CC2)c(Cc2ccc(F)cc2)n1 (centres unmarked),,aqueous buffer with DMSO,,,kinetic solubility,< 0.2 µg/mL
CC(=O)c1c(C)c2cnc(Nc3ccc(C4CCN(CCS(C)(=O)=O)CC4)cn3)nc2n(C2CCCC2)c1=O,,"human, dose-escalation trial, plasma","oral, 100 mg twice daily, day 1, single dose",,AUC(0-t),2470 ng·h/mL
COc1cc2c(Oc3ccc4[nH]c(C)cc4c3F)ccnc2cc1OCC1(N)CC1,,paediatric refractory sarcoma patients,10 mg,,TBIL elevation incidence,0%
COc1cccc(Oc2ccccc2NC(=O)CNC(=O)c2cccc3ccccc23)c1,,"esterase-deficient SCID mice, male, blood","oral, 15 mg/kg/day, 14 days, toxicity study",reference: white cells,lymphocytes,34% and 56.4% and 56%
O=S(=O)(Nc1ccccc1)c1ccc(NC(=S)Nc2ccccc2)cc1,refers to: NE%,"female mouse, blood","oral, 80 mg/kg daily, 14 days",,blood cell fraction,21.3%
C[C@]1(CO)Cc2ncn(-c3ccc(C#N)c(Cl)c3)c2C(=O)O1,,human,"all treatments, European food-effect part",,drug-related TEAEs,25%
CO[C@H]1C[C@@H]2CC[C@@H](C)[C@@](O)(O2)C(=O)C(=O)N2CCCC[C@H]2C(=O)O[C@H]([C@H](C)C[C@@H]2CC[C@@H](OC(=O)NCCOCCOCCOCCOCCOCCOCCOCCOCCC(=O)N3CCc4cc(Cn5nc(-c6ccc7oc(N)nc7c6)c6c(N)ncnc65)ccc4C3)[C@H](OC)C2)C[C@@H](O)[C@H](C)/C=C(\C)[C@@H](O)[C@@H](OC)C(=O)[C@H](C)C[C@H](C)/C=C/C=C/C=C/1C,,patients with advanced solid tumours,"intravenous, 8 mg weekly, any grade",,pneumonia AE leading to dose reduction,0%
CCCCCCCC(=O)N[C@@H](CCCCN)C(=O)N[C@@H](CCCCN)C(=O)N[C@@H](C)C(=O)N[C@@H](CC(C)C)C(=O)N[C@@H](CCCCN)C(=O)N[C@@H](CC(C)C)C(=O)N[C@@H](C)C(=O)N[C@@H](CCCCN)C(=O)N[C@@H](CCCCN)C(=O)N1CCC[C@H]1C(=O)N[C@@H](CC(C)C)C(=O)N[C@@H](CCCCN)C(=O)N[C@@H](CC(C)C)C(=O)N[C@@H](CC(C)C)C(=O)N[C@@H](CCCCN)C(N)=O,,"mouse ICR CD1 female, whole blood","intravenous bolus, 3 mg/kg",,volume of distribution,1.46 ± 0.149 L/kg
C=CC(=O)N1CC[C@H](n2nc(C#Cc3cc(OC)cc(OC)c3)c3c(N)ncnc32)C1,,patients with advanced solid tumours,"oral, dose not given, Hyperphosphatemia, any grade, QD, together with: phosphate-binding therapy",,adverse drug reaction incidence,100%
COc1cc([C@@H]2c3cc4c(cc3[C@H](O)[C@H]3COC(=O)[C@H]23)OCO4)cc(OC)c1OC,osmotic fragility,human erythrocytes,20 µM,,mean erythrocyte fragility,0.75%
O=c1nc(NO)ccn1[C@@H]1O[C@H](CO)[C@@H](O)[C@H]1O,,rat amniotic fluid dialysate,"1000 ng/mL, 6 h, 10 °C, high QC concentration, together with: molnupiravir",,autosampler stability,104 ± 2.12%
O=c1ccc2ccc3occc3c2o1,post-procedure stability,rat plasma,"1000 ng/mL, 1 h, room temperature",,accuracy,82.2%
C[C@@H](NC(=O)N1C(=O)[C@H](Cc2ccnc(N)c2)[C@H]1C(=O)O)C1CCCCC1,,healthy adult Chinese volunteers,"continuous intravenous infusion, 1.5 mg/kg/h, 5-day infusion, CTCAE 5.0 grading",,incidence of diarrhea,0%
C=CCNc1c(O)cc2c(O)c1C[C@@H](C)C[C@H](OC)[C@H](O)[C@@H](C)/C=C(\C)[C@H](OC(N)=O)[C@@H](OC)/C=C\C=C(/C)C(=O)N2,,"unresectable or metastatic STS, GIST, other","intravenous, 500 mg/m^2",,patients with myalgia TEAE,14%
C[C@@H]1NC(=O)[C@H](CCCCNC(=O)CO/N=C/C(=O)NCCCC[C@@H]2NC(=O)[C@@H](Cc3ccccc3)NC(=O)[C@H](CC(=O)O)NC(=O)CNC(=O)[C@H](CCCNC(=N)N)NC2=O)NC(=O)CNC(=O)[C@@H]2CCCN2C(=O)[C@H](CCCCNC(=O)CO/N=C/C(=O)NCCCC[C@@H]2NC(=O)[C@@H](Cc3ccccc3)NC(=O)[C@H](CC(=O)O)NC(=O)CNC(=O)[C@H](CCCNC(=N)N)NC2=O)NC(=O)[C@H](CCCCNC(=O)CN2CCCNCCNCCCNCC2)NC(=O)[C@H](CCCCNC(=O)CO/N=C/C(=O)NCCCC[C@@H]2NC(=O)[C@@H](Cc3ccccc3)NC(=O)[C@H](CC(=O)O)NC(=O)CNC(=O)[C@H](CCCNC(=N)N)NC2=O)NC(=O)CNC(=O)[C@@H]2CCCN2C(=O)[C@H](CCCCNC(=O)CO/N=C/C(=O)NCCCC[C@@H]2NC(=O)[C@@H](Cc3ccccc3)NC(=O)[C@H](CC(=O)O)NC(=O)CNC(=O)[C@H](CCCNC(=N)N)NC2=O)NC1=O [copper-64 labelled],,"normal mice, muscle","intravenous, 0.74 MBq, 24 h post-injection",,tissue uptake,0.27 ± 0.02 %ID/g
COc1ccc2[nH]c([S+]([O-])Cc3ncc(C)c(OC)c3C)nc2c1 (centres unmarked),,"healthy Chinese volunteers, plasma","oral, 20 mg, fed, CYP2C19 intermediate metabolizers",,Cmax,337 ± 281 ng/mL
O=C(O)CCc1ccccc1,,,"pH 7.4, third measurement",,logD,-0.67
CC(C)CC(=O)OC[C@H]1O[C@@](C#N)(c2ccc3c(N)ncnn23)[C@H](O)[C@@H]1O,,Humans plasma,"5 µM, 15 min",,remaining compound,48.8 ± 0.628%
CN1CCN(c2cccc3c2CCN(C(=O)/C=C/c2c(-n4cnnn4)ccc(Cl)c2F)[C@@H]3C(=O)Nc2ccc(C(=O)O)cc2)C(=O)C1,,healthy human subjects,"intravenous infusion, 10 mg/h, 2 h",,deaths,0%
O=C1Nc2cc3[nH]nc(-c4ccncc4)c3cc2CN1Cc1ccccc1,CTCAE v4.03,advanced solid tumour patients,"intravenous, 7.2 mg/kg, schedules 1/2",,patients with diarrhoea,0%
O=c1oc2c(O)c(O)cc3c(=O)oc4c(O)c(O)cc1c4c23,subacute oral toxicity,BALB/c mice,"oral, 1000 mg/kg/day, 28 days",,liver weight,1.33 g
NCCCC[C@@H]1NC(=O)[C@@H](Cc2c[nH]c3ccccc23)NC(=O)[C@H](c2ccccc2)NC(=O)[C@@H]2C[C@@H](OC(=O)NCCN)CN2C(=O)[C@H](Cc2ccccc2)NC(=O)[C@H](Cc2ccc(OCc3ccccc3)cc2)NC1=O,,"healthy volunteers, female","1950 µg twice daily, 4.0 h, post hoc",,placebo-corrected QTcF change,9 ms
Clc1ccc(-c2ccccc2)cc1,,"Sprague-Dawley rats, female, serum","inhalation, 23 µg/rat, 1 h after exposure",,phosphorus,12 ± 2 mg/dL
CN1C(=O)[C@@H](NC(=O)c2nnc(Cc3ccccc3)[nH]2)COc2cccnc21,phase I single ascending dose,"human, male and female","oral, 400 mg, fasted",,participants with TEAE leading to death,0%

# Some of these lines once more:
Compound,test,test system,conditions,scale,endpoint,value
C=CC(=O)N1CC[C@H](n2nc(C#Cc3cc(OC)cc(OC)c3)c3c(N)ncnc32)C1,,patients with advanced solid tumours,"oral, dose not given, Hyperphosphatemia, any grade, QD, together with: phosphate-binding therapy",,adverse drug reaction incidence,100%
COc1cc([C@@H]2c3cc4c(cc3[C@H](O)[C@H]3COC(=O)[C@H]23)OCO4)cc(OC)c1OC,osmotic fragility,human erythrocytes,20 µM,,mean erythrocyte fragility,0.75%
O=c1nc(NO)ccn1[C@@H]1O[C@H](CO)[C@@H](O)[C@H]1O,,rat amniotic fluid dialysate,"1000 ng/mL, 6 h, 10 °C, high QC concentration, together with: molnupiravir",,autosampler stability,104 ± 2.12%
O=c1ccc2ccc3occc3c2o1,post-procedure stability,rat plasma,"1000 ng/mL, 1 h, room temperature",,accuracy,82.2%
